Assay results gathered from unrelated publications.
Numbered parts are unrelated; each lists some results of a single study. Several values in a cell are separate wells, animals, samples, runs or records.

Block 1
Organism: Vesicular stomatitis virus
Read-out: pseudovirus infection
Method: FDA-approved drug library screen
Tested at: concentration not given
Notes: SARS-CoV-2 spike pseudotype
Baseline: vehicle
Structure (SMILES)	GFP-positive cells [%]
COc1nc2ccc(Br)cc2cc1[C@@H](c1ccccc1)[C@@](O)(CCN(C)C)c1cccc2ccccc12	48.9
CC(C(=O)[O-])c1cccc(Oc2ccccc2)c1.CC(C(=O)[O-])c1cccc(Oc2ccccc2)c1.[Ca+2] (centres unmarked)	77.2
Cc1cn(-c2cc(NC(=O)c3ccc(C)c(Nc4nccc(-c5cccnc5)n4)c3)cc(C(F)(F)F)c2)cn1	59.9
CN(C)CCC(c1ccc(Br)cc1)c1ccccn1.O=C(O)/C=C\C(=O)O (centres unmarked)	78.6

Block 2
Target: Ras GTPase-activating protein-binding protein 1, full length (G3BP1, Homo sapiens, UniProt Q13283)
Sequence of UniProt Q13283 (whole entry, looked up): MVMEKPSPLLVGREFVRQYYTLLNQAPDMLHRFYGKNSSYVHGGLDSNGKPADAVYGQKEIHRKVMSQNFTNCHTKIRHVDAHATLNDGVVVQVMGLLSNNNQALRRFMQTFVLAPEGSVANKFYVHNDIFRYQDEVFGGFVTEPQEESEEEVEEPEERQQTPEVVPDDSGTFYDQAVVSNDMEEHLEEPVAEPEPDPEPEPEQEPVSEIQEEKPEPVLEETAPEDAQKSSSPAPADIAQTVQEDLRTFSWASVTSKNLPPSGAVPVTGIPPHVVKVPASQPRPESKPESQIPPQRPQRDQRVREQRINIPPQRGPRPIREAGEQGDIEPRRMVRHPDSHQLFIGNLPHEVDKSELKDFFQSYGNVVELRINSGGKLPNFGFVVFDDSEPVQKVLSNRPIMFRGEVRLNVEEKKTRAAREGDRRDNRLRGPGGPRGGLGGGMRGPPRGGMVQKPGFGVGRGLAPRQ
Method: RNA Bind-n-Seq
Molecule type: RNA
Sample: in vitro
Tested at: 200 nM
Notes: whole 134-nt RNA, ends assumed
Added: 150 mM LiCl
Baseline: input library
Reading: higher = stronger binding
All molecules: 7-deaza-guanosine replaces G
Shared flanks, not repeated: GGGAGUUCUACAGUCCGACGAUC … UGGAAUUCUCGGGUGUCAAGG
Oligonucleotide	log2 enrichment
AGUCCUGUGCUACACAUCGUAUGUACCGAAUCGGGAGGGAAAAAAAGGGUUUUUGGGAAAGUAUUAUGUUACGCCGUUCGGAUCUGCACU	-1.44
UCCUGUGCUACACAUCGUAUGUACCGAAUCGGGGAAAAAGGGGAAAGGGGUUUUUGGGGAAAGUAUUAUGUUACGCCGUUCGGAUCUGCA	0.681
CUCAAGUCCUGUGCUACACAUCGUAUGUACCGAAUCGGGUUUGGGAGGGUGGGAAAGUAUUAUGUUACGCCGUUCGGAUCUGCACUUCCA	-0.175
CAAGUCCUGUGCUACACAUCGUAUGUACCGAAUCGGUUUUUGGUGGUUUUUUUGGAAAGUAUUAUGUUACGCCGUUCGGAUCUGCACUUC	-0.459
UGGCAGGAAAGAGUUCCUAGAGAGAGAAGACAAAGACAGUCUGUGUUGCAAAAGAAGCCCAAGGCUGAAGAUUUAAGAACUGAAUGUGCA	-1.82
UUUCUUCCCCCACAGUUCAUCCAUGAGCUCGGAUUUCCCACAUUACAACUUCAGGAUGCCUAAUAUUGGAUUCCAGAAUCUGCCUCUCAA	1.6
UAACUUUAGAGGAGGAUCUGAUGGAUAUGGCAGUGGACGUGGAUUUGGGGAUGGCUAUAAUGGGUAUGGAGGAGAACCUGGAGGUGGCAA	0.00232
AAGUCCUGUGCUACACAUCGUAUGUACCGAAUCGGGGCCCGGGGCCCGGCCCGGGGAAAGUAUUAUGUUACGCCGUUCGGAUCUGCACUU	-0.571

Block 3
Target: Sal-like protein 4, full length isoform A (SALL4, Homo sapiens, UniProt Q9UJQ4, residues 1-1053)
Sequence of UniProt Q9UJQ4 (whole entry, looked up): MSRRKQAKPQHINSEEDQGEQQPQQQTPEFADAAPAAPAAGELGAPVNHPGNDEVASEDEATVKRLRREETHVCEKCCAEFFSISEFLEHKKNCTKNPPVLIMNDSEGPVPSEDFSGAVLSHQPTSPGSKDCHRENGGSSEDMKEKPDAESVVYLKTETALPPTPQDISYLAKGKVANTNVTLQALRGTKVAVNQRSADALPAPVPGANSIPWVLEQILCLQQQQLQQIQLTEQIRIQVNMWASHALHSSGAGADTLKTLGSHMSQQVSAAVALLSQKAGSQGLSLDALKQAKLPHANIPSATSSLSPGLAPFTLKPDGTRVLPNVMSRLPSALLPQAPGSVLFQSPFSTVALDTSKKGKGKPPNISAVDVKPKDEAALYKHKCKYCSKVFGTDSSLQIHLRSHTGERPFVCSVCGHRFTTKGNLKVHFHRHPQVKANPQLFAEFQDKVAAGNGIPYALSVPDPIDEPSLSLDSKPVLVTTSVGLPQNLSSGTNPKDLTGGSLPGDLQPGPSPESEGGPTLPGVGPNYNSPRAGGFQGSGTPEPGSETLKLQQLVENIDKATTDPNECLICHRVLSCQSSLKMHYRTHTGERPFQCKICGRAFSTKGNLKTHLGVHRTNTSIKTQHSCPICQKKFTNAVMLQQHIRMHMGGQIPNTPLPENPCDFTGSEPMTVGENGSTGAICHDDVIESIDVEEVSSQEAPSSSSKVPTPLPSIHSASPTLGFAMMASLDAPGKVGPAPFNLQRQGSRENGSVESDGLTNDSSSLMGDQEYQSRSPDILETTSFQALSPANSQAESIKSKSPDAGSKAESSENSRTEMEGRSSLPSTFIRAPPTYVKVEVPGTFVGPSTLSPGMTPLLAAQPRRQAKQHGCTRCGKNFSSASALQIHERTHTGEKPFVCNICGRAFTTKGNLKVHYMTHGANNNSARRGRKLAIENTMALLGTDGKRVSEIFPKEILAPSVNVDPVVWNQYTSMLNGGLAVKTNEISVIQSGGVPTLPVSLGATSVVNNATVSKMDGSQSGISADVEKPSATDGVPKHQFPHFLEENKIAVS
Method: universal PBM
Molecule type: double-stranded DNA, one strand shown
Sample: in vitro
Tested at: 600 nM
Notes: 8-mer, flanks averaged, mean of replicates
Reading: higher = stronger binding
Oligonucleotide	E-score
CTTCCACC	-0.0282
GGATTGCA	0.015
CACGCGCA	-0.246
ACCGCGAG	-0.29
AGTTTAGA	0.201
AGCTACAG	-0.118
TCAGGCGA	-0.194
ATCTGCTC	-0.0586

Block 4
Target: Replicase polyprotein 1ab, nsp13 helicase (rep, Severe acute respiratory syndrome coronavirus 2, UniProt P0DTD1)
Read-out: helicase activity
Organism: SARS-CoV-2
Structure (SMILES)	IC50
O=[N+]([O-])C=Cc1ccc2c(c1)OCO2	21.4 µM
C=CC(=O)c1ccc2ccccc2c1	9.53 µM
O=C(/C=C/c1ccc2ccccc2n1)c1ccncc1	3.76 µM
O=C1C=CC(=O)C2=C1C1c3ccccc3C2c2ccccc21	1.33 µM
O=Nc1ccc(O)c2ncccc12	1.07 µM
CC(C)N[C@@H]1CCn2c(=O)[nH]c3cccc(c32)[C@H]1O	88.5 µM
O=C(O)c1ccc(SSc2ccc(C(=O)O)cn2)nc1	1.78 µM
CCn1c(N)c(C(=O)NC)c(=O)c2ccc(C#C[C@@](C)(O)COC)nc21	50.4 µM
N#CSc1cc(SC#N)c(N)nc1N	34.5 µM
Oc1c(I)cc(I)c(O)c1I	1.27 µM
Cc1ccc(-n2sc(=O)n(Cc3ccc(F)cc3)c2=O)cc1	2.76 µM
CCOC(=O)C1=C(N)Oc2ccc(Br)cc2[C@H]1[C@H](C#N)C(=O)OCC	46.9 µM and 44.6 µM
CC(=O)[O][Pt]([NH2])([Cl])([Cl])([NH]C1CCCCC1)[O]C(C)=O	13.3 µM
O=C(O)c1ccc(N2C(=O)/C(=C\c3ccc(-c4ccc([N+](=O)[O-])cc4)o3)C=C2c2ccccc2)cc1	14.8 µM
O=c1[nH]nc(Sc2ncc([N+](=O)[O-])s2)n1-c1ccc2c(c1)OCCO2	6.73 µM
O=C1C=Cc2cc(Br)ccc2C1=O	2.92 µM
Cc1ccc(S(=O)(=O)/C=C/C#N)cc1	1.63 µM
CC(C)(C)c1ccc(S(=O)(=O)/C=C/C#N)cc1	1.37 µM
O=C1C(c2ccccn2)=[N+]([O-])c2ccccc21	12.9 µM
CN=c1nc(-c2ccccc2)n(-c2ccccc2)s1	0.73 µM
CCN(CC)C(=S)S	47.4 µM
Cc1nc(C#Cc2ccnc(Cl)c2)c(C)n1-c1ccc(OC(F)(F)F)cc1	9.14 µM
O=S(=O)(O)c1ccc(-c2c3nc(c(-c4ccc(S(=O)(=O)O)cc4)c4ccc([nH]4)c(-c4ccc(S(=O)(=O)O)cc4)c4nc(c(-c5ccc(S(=O)(=O)O)cc5)c5ccc2[nH]5)C=C4)C=C3)cc1	40 µM

Block 5
Target: Replicase polyprotein 1ab, main protease (rep, Severe acute respiratory syndrome coronavirus 2, UniProt P0DTD1)
Read-out: enzyme activity
Action: inhibitor
Tested at: 20 µM
Notes: with DTT
SMILES	inhibition
CCC[C@H](NC(=O)/C(C#N)=C/c1cccc(Br)n1)c1ccccc1	-6.59%
N=C(N)N=Nc1ccc(NNC(=N)S)cc1	1.78%
c1ccc2sc(SNC3CCCCC3)nc2c1	-16.4%
Nc1c[n+](N2CCOCC2)no1	-14.9%
